Published values pooled from the literature.
Each numbered part is a random draw from the data of one study; scales do not carry over between parts.
Chain of UniProt Q8NE63 (whole entry, looked up): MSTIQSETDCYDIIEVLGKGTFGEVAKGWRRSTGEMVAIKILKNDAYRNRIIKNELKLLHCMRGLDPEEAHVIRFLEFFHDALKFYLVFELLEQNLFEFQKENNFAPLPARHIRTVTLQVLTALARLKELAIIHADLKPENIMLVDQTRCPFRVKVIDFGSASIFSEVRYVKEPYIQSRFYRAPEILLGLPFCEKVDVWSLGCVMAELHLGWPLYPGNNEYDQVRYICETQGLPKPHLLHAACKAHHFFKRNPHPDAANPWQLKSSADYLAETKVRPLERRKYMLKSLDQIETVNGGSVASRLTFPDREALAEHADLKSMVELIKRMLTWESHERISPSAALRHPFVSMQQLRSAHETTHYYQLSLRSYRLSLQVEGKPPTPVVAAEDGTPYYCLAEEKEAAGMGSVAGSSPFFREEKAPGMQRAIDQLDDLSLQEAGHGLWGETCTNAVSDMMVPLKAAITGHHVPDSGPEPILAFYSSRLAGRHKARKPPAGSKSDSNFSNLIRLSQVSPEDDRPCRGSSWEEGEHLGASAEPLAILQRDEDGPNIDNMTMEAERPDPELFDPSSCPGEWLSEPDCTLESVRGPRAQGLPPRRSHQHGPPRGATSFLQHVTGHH
Chain of UniProt Q13557 (whole entry, looked up): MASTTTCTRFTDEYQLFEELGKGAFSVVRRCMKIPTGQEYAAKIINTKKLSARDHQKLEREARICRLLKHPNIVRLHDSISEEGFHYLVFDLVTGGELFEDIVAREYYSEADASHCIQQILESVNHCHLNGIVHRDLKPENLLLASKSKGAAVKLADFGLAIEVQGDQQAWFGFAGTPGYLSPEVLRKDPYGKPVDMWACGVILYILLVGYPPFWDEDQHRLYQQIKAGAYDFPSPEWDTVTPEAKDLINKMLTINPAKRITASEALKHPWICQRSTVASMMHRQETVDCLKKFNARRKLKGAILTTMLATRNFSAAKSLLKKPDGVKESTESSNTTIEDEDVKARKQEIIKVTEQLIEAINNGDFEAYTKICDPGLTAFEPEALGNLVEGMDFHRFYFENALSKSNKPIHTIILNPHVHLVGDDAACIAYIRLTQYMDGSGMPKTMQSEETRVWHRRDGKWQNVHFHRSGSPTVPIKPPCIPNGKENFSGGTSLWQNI
Chain of UniProt Q8WU08 (whole entry, looked up): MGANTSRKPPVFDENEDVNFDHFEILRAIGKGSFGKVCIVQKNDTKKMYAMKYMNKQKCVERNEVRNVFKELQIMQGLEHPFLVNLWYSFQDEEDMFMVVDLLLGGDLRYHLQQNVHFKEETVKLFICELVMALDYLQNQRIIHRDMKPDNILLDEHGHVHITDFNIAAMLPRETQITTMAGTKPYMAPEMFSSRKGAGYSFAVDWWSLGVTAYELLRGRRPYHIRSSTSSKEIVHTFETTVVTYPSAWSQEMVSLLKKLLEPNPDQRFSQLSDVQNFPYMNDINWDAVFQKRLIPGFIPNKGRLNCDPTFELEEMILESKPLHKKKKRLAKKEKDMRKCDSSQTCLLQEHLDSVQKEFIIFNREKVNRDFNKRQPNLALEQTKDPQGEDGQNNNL
Chain of UniProt Q56UN5 (whole entry, looked up): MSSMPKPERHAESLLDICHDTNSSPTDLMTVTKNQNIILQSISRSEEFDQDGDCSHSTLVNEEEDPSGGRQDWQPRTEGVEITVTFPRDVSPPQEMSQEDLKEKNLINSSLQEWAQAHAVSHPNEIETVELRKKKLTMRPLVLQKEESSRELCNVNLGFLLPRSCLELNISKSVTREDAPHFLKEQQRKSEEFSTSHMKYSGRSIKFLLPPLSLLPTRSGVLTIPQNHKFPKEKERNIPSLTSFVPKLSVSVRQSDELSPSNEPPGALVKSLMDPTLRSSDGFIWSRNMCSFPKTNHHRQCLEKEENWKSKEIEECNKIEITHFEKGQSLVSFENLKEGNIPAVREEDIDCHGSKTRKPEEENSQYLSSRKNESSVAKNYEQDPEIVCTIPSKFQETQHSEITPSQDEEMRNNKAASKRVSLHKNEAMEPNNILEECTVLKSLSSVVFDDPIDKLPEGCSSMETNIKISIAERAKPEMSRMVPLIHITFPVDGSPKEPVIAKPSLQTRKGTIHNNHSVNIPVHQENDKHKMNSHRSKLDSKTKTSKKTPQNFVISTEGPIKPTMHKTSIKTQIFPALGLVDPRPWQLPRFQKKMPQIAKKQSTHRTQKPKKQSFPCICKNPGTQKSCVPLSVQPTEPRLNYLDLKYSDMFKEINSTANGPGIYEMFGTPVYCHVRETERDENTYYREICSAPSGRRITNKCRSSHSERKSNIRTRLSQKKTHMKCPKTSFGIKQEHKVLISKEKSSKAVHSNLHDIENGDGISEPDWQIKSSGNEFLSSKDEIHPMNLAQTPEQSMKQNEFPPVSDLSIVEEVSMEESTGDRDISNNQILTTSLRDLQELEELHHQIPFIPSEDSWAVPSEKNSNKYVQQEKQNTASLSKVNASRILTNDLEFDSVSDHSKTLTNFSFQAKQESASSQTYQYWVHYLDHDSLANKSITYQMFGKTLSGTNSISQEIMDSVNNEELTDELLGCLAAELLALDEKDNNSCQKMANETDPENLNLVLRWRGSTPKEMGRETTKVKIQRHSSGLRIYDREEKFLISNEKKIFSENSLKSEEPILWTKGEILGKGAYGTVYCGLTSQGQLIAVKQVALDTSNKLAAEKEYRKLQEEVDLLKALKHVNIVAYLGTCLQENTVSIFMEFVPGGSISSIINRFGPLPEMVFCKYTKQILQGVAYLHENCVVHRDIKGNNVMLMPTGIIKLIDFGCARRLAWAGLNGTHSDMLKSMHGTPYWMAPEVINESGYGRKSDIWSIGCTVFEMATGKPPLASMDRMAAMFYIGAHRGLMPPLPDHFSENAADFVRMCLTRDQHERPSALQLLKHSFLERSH
Chain of UniProt Q9Y2K2 (whole entry, looked up): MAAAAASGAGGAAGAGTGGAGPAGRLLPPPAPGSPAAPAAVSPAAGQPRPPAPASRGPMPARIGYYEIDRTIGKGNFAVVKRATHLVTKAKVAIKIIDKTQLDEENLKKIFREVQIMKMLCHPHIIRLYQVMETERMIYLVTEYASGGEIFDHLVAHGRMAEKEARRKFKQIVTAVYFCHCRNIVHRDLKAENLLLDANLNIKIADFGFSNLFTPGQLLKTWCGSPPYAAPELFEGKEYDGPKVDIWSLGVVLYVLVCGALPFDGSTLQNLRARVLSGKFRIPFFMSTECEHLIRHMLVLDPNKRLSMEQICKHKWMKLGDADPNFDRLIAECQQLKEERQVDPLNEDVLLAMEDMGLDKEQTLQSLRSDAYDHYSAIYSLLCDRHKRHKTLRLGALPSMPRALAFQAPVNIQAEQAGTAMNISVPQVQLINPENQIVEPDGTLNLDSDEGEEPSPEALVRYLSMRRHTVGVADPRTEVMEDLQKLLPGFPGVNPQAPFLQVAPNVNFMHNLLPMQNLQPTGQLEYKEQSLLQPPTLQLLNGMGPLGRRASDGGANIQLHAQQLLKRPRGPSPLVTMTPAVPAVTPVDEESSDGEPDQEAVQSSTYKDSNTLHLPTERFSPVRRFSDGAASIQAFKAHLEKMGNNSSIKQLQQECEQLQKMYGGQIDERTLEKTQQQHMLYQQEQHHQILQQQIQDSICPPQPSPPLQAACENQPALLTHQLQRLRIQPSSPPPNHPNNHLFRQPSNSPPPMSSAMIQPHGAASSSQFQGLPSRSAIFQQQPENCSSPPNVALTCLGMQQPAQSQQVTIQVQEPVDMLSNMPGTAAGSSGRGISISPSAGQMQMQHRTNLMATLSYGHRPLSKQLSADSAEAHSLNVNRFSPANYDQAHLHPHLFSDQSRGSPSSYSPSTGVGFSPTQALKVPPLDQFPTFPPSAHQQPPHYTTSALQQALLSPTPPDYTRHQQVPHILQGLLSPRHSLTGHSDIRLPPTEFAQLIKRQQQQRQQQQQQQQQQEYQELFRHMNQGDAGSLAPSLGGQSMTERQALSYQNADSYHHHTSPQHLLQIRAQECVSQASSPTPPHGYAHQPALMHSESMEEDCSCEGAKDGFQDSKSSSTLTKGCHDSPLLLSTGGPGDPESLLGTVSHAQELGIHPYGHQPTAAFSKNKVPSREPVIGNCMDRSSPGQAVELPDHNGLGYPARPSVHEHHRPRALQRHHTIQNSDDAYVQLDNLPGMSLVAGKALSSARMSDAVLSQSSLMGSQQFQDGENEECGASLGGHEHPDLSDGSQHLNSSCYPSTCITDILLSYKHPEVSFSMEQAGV
Chain of UniProt Q96D53 (whole entry, looked up): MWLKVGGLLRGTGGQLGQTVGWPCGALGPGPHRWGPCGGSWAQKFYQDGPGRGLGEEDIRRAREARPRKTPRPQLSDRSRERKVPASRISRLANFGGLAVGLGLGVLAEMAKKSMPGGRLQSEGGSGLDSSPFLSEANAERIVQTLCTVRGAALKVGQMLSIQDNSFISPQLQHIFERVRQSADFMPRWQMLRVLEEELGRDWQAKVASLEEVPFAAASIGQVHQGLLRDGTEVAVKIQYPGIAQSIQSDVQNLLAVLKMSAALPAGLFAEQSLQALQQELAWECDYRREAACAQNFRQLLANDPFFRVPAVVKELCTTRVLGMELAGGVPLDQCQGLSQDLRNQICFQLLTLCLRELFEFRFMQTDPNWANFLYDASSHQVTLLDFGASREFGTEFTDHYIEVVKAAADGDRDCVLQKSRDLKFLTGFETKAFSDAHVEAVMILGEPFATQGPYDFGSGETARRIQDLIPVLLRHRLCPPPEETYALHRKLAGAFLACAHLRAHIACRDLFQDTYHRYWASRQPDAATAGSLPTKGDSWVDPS

Series 1 — observed: AlphaScreen signal; technique: AlphaScreen counter screen; medium: His6 peptide without bromodomain; tested at: 50 µM; setting: assay interference check; quantity: inhibition
Cl.Oc1ccc(-c2nc(-c3ccc(F)cc3)c(-c3ccncc3)[nH]2)cc1: 48.5%
CCOC(=O)c1cccc(Nc2nc(N)nc3[nH]cnc23)c1: 9.1%
O=C(CSc1ccc2nnc(-c3cccc(F)c3)n2n1)NCc1ccc(F)cc1: 8.45%
Nc1nc(NCc2ccc(F)cc2)c2nc[nH]c2n1: 17.8%
CC(Cl)C(=O)C(C#N)=C1Nc2ccccc2S1 (stereo not shown): 27%
CN(C)c1ccc(/C=C2\C(=O)Nc3ccccc32)cc1: 83.1%
Nc1nc(NCc2ccccc2)c2nc[nH]c2n1: 69.8%
O=C(O)COc1ccccc1C=NNC(=O)c1cc(-c2ccc3c4c(cccc24)CC3)n[nH]1: 16.8%
CCN(CC)CCNc1ccc(NCCN(CC)CC)c2c1C(=O)c1ccccc1C2=O: 67.8%
CCCOc1ccc(C=C2SC(=O)N(CCN)C2=O)cc1: 26.5%

Series 2 — tested at: 1 µM; quantity: remaining binding
SMILES: CCCCN(CCCC)C(=O)CN1C[C@@H](c2cc(OC)c3c(c2)OCO3)[C@H](C(=O)O)[C@H]1CC(C)(C)CCC
ABL1 (Homo sapiens, UniProt P00519, F317I); KINOMEscan; F317I mutant, phosphorylated; relative to: control: 94.3%
MAP4K1 (Homo sapiens, UniProt Q92918); cell-free assay, competition with immobilised ligand: 99.6%
Ribosomal protein S6 kinase alpha-6, C-terminal kinase domain (RPS6KA6, Homo sapiens, UniProt Q9UK32); cell-free assay, competition with immobilised ligand: 79.2%
Tyrosine-protein kinase ABL1, non-phosphorylated (ABL1, Homo sapiens, UniProt P00519, H396P); cell-free assay, competition with immobilised ligand: 89.4%
HIPK4 (Homo sapiens, UniProt Q8NE63); cell-free assay, competition with immobilised ligand: 100%
MINK1 (Homo sapiens, UniProt Q8N4C8); cell-free assay, competition with immobilised ligand: 100%
Tyrosine-protein kinase ABL1, non-phosphorylated (ABL1, Homo sapiens, UniProt P00519, F317I); cell-free assay, competition with immobilised ligand: 100%
MAP3K19 (Homo sapiens, UniProt Q56UN5); cell-free assay, competition with immobilised ligand: 100%
BMP2K (Homo sapiens, UniProt Q9NSY1); cell-free assay, competition with immobilised ligand: 100%

Series 3 — observed: enzyme activity; action: inhibitor; tested at: 0.5 µM; relative to: control; quantity: remaining activity
Target: Serine/threonine-protein kinase pim-1 (PIM1, Homo sapiens, UniProt P11309)
Chain of UniProt P11309 (whole entry, looked up): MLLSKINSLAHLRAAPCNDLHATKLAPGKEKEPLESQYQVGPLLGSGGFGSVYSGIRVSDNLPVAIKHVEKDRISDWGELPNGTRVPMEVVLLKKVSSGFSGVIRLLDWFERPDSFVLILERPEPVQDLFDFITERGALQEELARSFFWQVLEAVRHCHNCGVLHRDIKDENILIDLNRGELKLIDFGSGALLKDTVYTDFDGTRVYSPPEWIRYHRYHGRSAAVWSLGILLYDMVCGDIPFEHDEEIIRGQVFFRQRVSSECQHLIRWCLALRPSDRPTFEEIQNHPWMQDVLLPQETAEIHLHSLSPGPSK
N#CC(C#N)=C(N)/C(C#N)=C/c1ccc(O)cc1: 103%
Cc1ccc(NC(=O)c2ccc(CN3CCN(C)CC3)cc2)cc1Nc1nc(-c2cccnc2)cs1: 86.4%
CO[C@H]1C[C@@H]2CC[C@@H](C)[C@@](O)(O2)C(=O)C(=O)N2CCCC[C@H]2C(=O)O[C@H]([C@H](C)C[C@@H]2CC[C@@H](O)[C@H](OC)C2)CC(=O)[C@H](C)/C=C(\C)[C@@H](O)[C@@H](OC)C(=O)[C@H](C)C[C@H](C)/C=C/C=C/C=C/1C: 104%
NCCNc1ncc(C(N)=O)c(Nc2cccc(C(F)(F)F)c2)n1: 76.1%
O=S(=O)(c1cccc2cnccc12)N1CCCNCC1: 77%
O=C1NC(=O)C(c2cn(CCCn3ccnc3)c3ccccc23)=C1Nc1ccccc1: 79.1%
OCC(O)CCON=C1C(c2c(O)[nH]c3ccccc23)=Nc2ccccc21 (stereo not shown): 59.7%
Nc1ncnc2n[nH]c(Nc3ccc(F)cc3)c12: 95.5%
O=c1c2ccccc2[nH]c(=S)n1CCN1CCC(=C(c2ccc(F)cc2)c2ccc(F)cc2)CC1: 105%
Oc1ccc(-c2nc(-c3ccncc3)c(-c3ccc(F)cc3)[nH]2)cc1: 106%
Cc1nc(-c2ccccc2)c(-c2ccncc2)o1: 105%
COc1ccc(OC)c2c(=S)c3ccccc3[nH]c12: 93%
O=C(CCCc1ccc(-c2ccccc2F)cc1)Nc1ccc(O)cc1: 97.9%
COc1ccc(CNC(=O)Nc2ncc([N+](=O)[O-])s2)cc1: 104%
COc1cc2nccc(Oc3ccc(NC(=S)NC(=O)c4ccccc4C)cc3)c2cc1OC: 97.6%
CCOC(=O)c1c(C)[nH]c(/C=C2\C(=O)Nc3ccccc32)c1C: 95.8%

Series 4 — SMILES: O=C(Nc1ccccc1)Nc1cccc(Oc2ccc3nccn3n2)c1; tested at: 1 µM; quantity: remaining binding
STK32A (Homo sapiens, UniProt Q8WU08); competitive binding panel, refers to: YANK1; relative to: vehicle: 100%
ABL1 (Homo sapiens, UniProt P00519, T315I); competitive binding, scanMAX: 100%
MAP3K15 (Homo sapiens, UniProt Q6ZN16); competitive binding panel; relative to: vehicle: 100%
SIK3 (Homo sapiens, UniProt Q9Y2K2); competitive binding; QSK: 100%
EPHB4 (Homo sapiens, UniProt P54760); competitive binding panel; relative to: vehicle: 90%
CAMK2D (Homo sapiens, UniProt Q13557); competitive binding panel; relative to: vehicle: 100%
HIPK4 (Homo sapiens, UniProt Q8NE63); competitive binding panel; relative to: vehicle: 91%
COQ8B (Homo sapiens, UniProt Q96D53); competitive binding panel, refers to: ADCK4; relative to: vehicle: 82%
PIK3CA (Homo sapiens, UniProt P42336, C420R); competitive binding panel; relative to: vehicle: 100%
MAP3K12 (Homo sapiens, UniProt Q12852); competitive binding; DLK: 100%
CDK13 (Homo sapiens, UniProt Q14004); competitive binding panel, refers to: CDC2L5; relative to: vehicle: 100%

Excerpt of the above (series 4):
ABL1 (Homo sapiens, UniProt P00519, T315I); competitive binding, scanMAX: 100%
PIK3CA (Homo sapiens, UniProt P42336, C420R); competitive binding panel; relative to: vehicle: 100%
EPHB4 (Homo sapiens, UniProt P54760); competitive binding panel; relative to: vehicle: 90%
HIPK4 (Homo sapiens, UniProt Q8NE63); competitive binding panel; relative to: vehicle: 91%
STK32A (Homo sapiens, UniProt Q8WU08); competitive binding panel, refers to: YANK1; relative to: vehicle: 100%
MAP3K12 (Homo sapiens, UniProt Q12852); competitive binding; DLK: 100%
MAP3K15 (Homo sapiens, UniProt Q6ZN16); competitive binding panel; relative to: vehicle: 100%
CAMK2D (Homo sapiens, UniProt Q13557); competitive binding panel; relative to: vehicle: 100%
